Experimental data from different studies.
Compare with care: the assays were run in different laboratories. ± gives the spread as reported.

Compound | cell line | assay | test system | setting | IC50
CNc1nc2c(c(N3CC(=O)Nc4cc(OC)ccc43)n1)CCC2 | PDX-derived, HCI-10-Luc2, taxane refractory | cell growth, MTS |  |  | 0.001 to 0.004 µM
COC(=O)CN=c1scc(-c2ccccc2)n1-c1ccc(Cl)cc1 | Panc 03.27 | cell viability, MTT |  | 72 h | 27.4 µM
Cc1cc(N2CCc3c(c(C)nn3CC34CCC(NC(=O)[C@@H]5COCCN5)(CC3)CC4)C2)c2cnn(C)c2n1 | human PBMC | IFN-driven gene expression, inhibitor, qRT-PCR, measured: IRF7 mRNA |  | two donors, together with: ssRNA | 0.001 ± 0.0003 µM
COc1c(Cl)cccc1Nc1c(-c2ccncc2OC[C@@H]2COCCO2)[nH]c2c1C(=O)NCC2 | Ba/F3 expressing HER2 wild type | cell growth, inhibitor, CellTiter-Glo |  |  | 0.0053 µM
CC1=C(C(=O)OC(C)C)C(c2cccc([N+](=O)[O-])c2)C(C(=O)OC2CN(C(c3ccccc3)c3ccccc3)C2)=C(N)N1 (stereo not drawn) | AC16 cardiomyocytes | mitochondrial membrane potential decrease |  | 1 h | 2.56 ± 0.44 µM
CSCC[C@H](NC(=O)[C@H](CCCCN)NC(=O)[C@H](CCCNC(=N)N)NC(=O)[C@H](CO)NC(=O)[C@H](Cc1c[nH]c2ccccc12)NC(=O)[C@H](CCCNC(=N)N)NC(=O)[C@H](CC(C)C)NC(=O)[C@@H](CO)NC(C)=O)C(=O)N1CCC[C@H]1C(=O)N[C@@H](CS)C(=O)N[C@H](C(=O)N[C@@H](CO)C(N)=O)C(C)C | SUP-T1 | Erk phosphorylation, inhibitor, phospho flow cytometry |  | together with: CXCL12 100 ng/mL | > 100 µM
CNC(=O)c1ncn2c(NCc3c(F)ccc4c3CCO4)ncc(-c3ccccc3)c12 | KARPAS-422 |  |  | concentration not given, 168 h | 0.0515 ± 0.0007 µM
Cc1nc2ccc(Br)cc2c(=O)n1/N=C/c1ccc(C(=O)O)cc1 | LoVo | cytotoxicity, LDH release |  | 24 h, 50% viability reduction | 651 ± 12.8 µM
COC(=O)CN=c1scc(-c2ccccc2)n1-c1ccc(C)cc1 | Panc 03.27 | cell viability, MTT |  | 72 h | 10.8 µM
CC[C@H](C)[C@H](NC(C)=O)C(=O)N[C@@H](CC(C)C)C(=O)N[C@@H](CCCNC(=N)N)C(=O)N[C@@H](Cc1c[nH]c2ccccc12)C(=O)N[C@@H](CO)C(=O)N[C@@H](CCCNC(=N)N)C(=O)N[C@@H](CCCCN)C(=O)N[C@@H](CC(C)C)C(=O)N1CCC[C@H]1C(=O)N[C@@H](CS)C(=O)N[C@H](C(=O)N[C@@H](CO)C(N)=O)C(C)C | SUP-T1 | Erk phosphorylation, inhibitor, phospho flow cytometry |  | together with: CXCL12 100 ng/mL | 42.1 ± 29.8 µM
Cc1c(C)c2c(c(C)c1O)CCC(C)(COc1ccc(CC3SC(=O)NC3=O)cc1)O2 (stereo not drawn) | iPSC-derived hepatocytes B2 | cell viability |  | 72 h, differentiation day 23 | 50 µM
C=CC(=O)Nc1cc(Nc2nccc(-c3cn(C)c4ccccc34)n2)c(OC)cc1N(C)CCN(C)C | NCI-H2073 ASV knock-in | cell proliferation, CellTiter-Glo |  | 72 h, geometric mean | 0.0696 µM
C=CC[C@@H]1/C=C(\C)C[C@H](C)C[C@H](OC)[C@H]2O[C@@](O)(C(=O)C(=O)N3CCCC[C@H]3C(=O)O[C@H](/C(C)=C/[C@@H]3CC[C@@H](O)[C@H](OC)C3)[C@H](C)[C@@H](O)CC1=O)[C@H](C)C[C@@H]2OC | Jurkat FKBP12 knockout | NFAT luciferase reporter |  |  | 0.00947 µM
C=CC(=O)Nc1cc(Nc2nccc(-c3cn(C)c4ccccc34)n2)c(OC)cc1N(C)CCN(C)C | Ba/F3 EGFR L861Q | cell proliferation, CellTiter-Glo |  | 72 h | 0.0137 ± 0.00091 µM
CCCCCCOC(=O)c1ccc(O)cc1 | AC16 cardiomyocytes | mitochondrial membrane potential decrease |  | 1 h | 17.6 ± 5.67 µM
CC[C@H](C)[C@H](N)C(=O)N[C@H](CC(C)C)C(=O)N[C@@H](CCCNC(=N)N)C(=O)N[C@@H](Cc1c[nH]c2ccccc12)C(=O)N[C@@H](CO)C(=O)N[C@@H](CCCNC(=N)N)C(=O)N[C@@H](CCCCN)C(=O)N[C@@H](CC(C)C)C(=O)N1CCC[C@H]1C(=O)N[C@@H](CS)C(=O)N[C@H](C(=O)N[C@@H](CO)C(N)=O)C(C)C | SUP-T1 | Erk phosphorylation, inhibitor, phospho flow cytometry |  | together with: CXCL12 100 ng/mL | > 100 µM
COc1ccc(F)cc1C(=O)NCc1ccc(-c2nn([C@@H](C)C(F)(F)F)c(N)c2C(N)=O)cc1 | Rec1 | calcium flux |  | together with: anti-IgM | 0.0086 µM
C=C1C[C@](OC)([C@H](OCOC/C=C/B2OC(CC)(CC)C(CC)(CC)O2)C(=O)NC[C@@H]2C[C@@H](OC)C(C)(C)[C@@H](C[C@@H](COC)OC)O2)O[C@H](C)[C@@H]1C | U-87 MG | cell viability, sulforhodamine B |  | 72 h, 37 °C, without H2O2 | 0.049 ± 0.025 µM
Cc1nc(NC(=O)N2CCC[C@H]2C(N)=O)sc1-c1ccnc(C(C)(C)C(F)(F)F)c1 | BFTC-909 | growth rate inhibition, CellTiter-Glo |  | 120 h | 7.07 µM
CN1CCC(NC2CCc3[nH]c4c(C(N)=O)ccc(-c5ccccc5Cl)c4c3C2)CC1 (stereo not drawn) | B16-F10 | cell growth |  | 96 h | 0.0216 µM

Compound | cell line | assay | test system | setting | IC50
CSCC[C@H](NC(=O)[C@@H](N)CCSC)C(=O)N[C@@H](CCCNC(=N)N)C(=O)N[C@@H](Cc1c[nH]c2ccccc12)C(=O)N[C@@H](CO)C(=O)N[C@@H](CCCNC(=N)N)C(=O)N[C@@H](CCCCN)C(=O)N[C@@H](CCSC)C(=O)N1CCC[C@H]1C(=O)N[C@@H](CS)C(=O)N[C@H](C(=O)N[C@@H](CO)C(N)=O)C(C)C | SUP-T1 | Erk phosphorylation, inhibitor, phospho flow cytometry |  | together with: CXCL12 100 ng/mL | 7.3 ± 3.05 µM
CCCCCCCC[N+](CCCCCCCC)(CCCCCCCC)CCCCCCCC | differentiated LUHMES MT1G::HiBiT-G2 neurons | cell viability |  | 24 h | 0.32 µM
Cc1c(C(=O)O)ccc2c3n(nc12)[C@@H]1[C@H](C3)N(CC2CC2)[C@@]2(C(=O)Nc3cc(Cl)ccc32)[C@H]1c1cccc(Cl)c1F | U-2 OS (MDM2 non-amplified) | cell proliferation, alamarBlue |  | 120 h | > 2 µM
CSCC[C@H](NC(=O)[C@H](CCCCN)NC(=O)[C@H](CCCNC(=N)N)NC(=O)[C@H](CO)NC(=O)[C@H](Cc1c[nH]c2ccccc12)NC(=O)[C@H](CCCNC(=N)N)NC(=O)[C@H](CC(C)C)NC(=O)[C@@H](N)CCSC)C(=O)N1CCC[C@H]1C(=O)N[C@@H](CS)C(=O)N[C@H](C(=O)N[C@@H](CO)C(N)=O)C(C)C | SUP-T1 | Erk phosphorylation, inhibitor, phospho flow cytometry |  | together with: CXCL12 100 ng/mL | 1.23 ± 0.281 µM
COc1cccc2c1C(=O)c1c(O)c3c(c(O)c1C2=O)C[C@@](O)(C(=O)CO)C[C@@H]3O[C@H]1C[C@H](N)[C@H](O)[C@H](C)O1 | MCF7/ADR | cell viability, MTT |  | 48 h | 5.62 ± 0.34 µg/mL
CCCCN1C[C@H](O)[C@@H](O)[C@@H](O)[C@H]1CO | sample D patient fibroblasts | Gb3 level lowering, LC-MS/MS, measured: Gb3 d18:1/24:1 |  | 216 h | 12.4 µM
CS(=O)(=O)CCNCc1ccc(-c2ccc3ncnc(Nc4ccc(OCc5cccc(F)c5)c(Cl)c4)c3c2)o1 | AC16 cardiomyocytes | mitochondrial membrane potential decrease |  | 1 h | 2.65 ± 0.3 µM
C[C@H](Nc1ccc2c(c1)OCCn1cc(N3C(=O)OC[C@H]3C(F)F)nc1-2)C(N)=O | CAL-51 | growth rate inhibition, CellTiter-Glo |  | 120 h | 1.28 µM
COc1ccc2cc(/C=N/n3c(C)nc4ccc(Br)cc4c3=O)ccc2c1 | LoVo | cytotoxicity, LDH release |  | 24 h, 50% viability reduction | 682 ± 8.38 µM
CSCC[C@H](NC(=O)[C@H](N)Cc1ccccc1)C(=O)N[C@@H](CCCNC(=N)N)C(=O)N[C@@H](Cc1c[nH]c2ccccc12)C(=O)N[C@@H](CO)C(=O)N[C@@H](CCCNC(=N)N)C(=O)N[C@@H](CCCCN)C(=O)N[C@@H](CCSC)C(=O)N1CCC[C@H]1C(=O)N[C@@H](CS)C(=O)N[C@H](C(=O)N[C@@H](CO)C(N)=O)C(C)C | SUP-T1 | Erk phosphorylation, inhibitor, phospho flow cytometry |  | together with: CXCL12 100 ng/mL | > 100 µM
C=CC(=O)Nc1cc(Nc2nccc(Nc3cc(Cl)c(F)cc3C(C)(C)O)n2)c(OC)cc1N1CC[C@@H](N(C)C)C1 | NCI-H2073 ASV knock-in | cell proliferation, CellTiter-Glo |  | 72 h, geometric mean | 0.0174 µM
CC[C@H](C)[C@H](N)C(=O)N[C@H](CC(C)C)C(=O)N[C@@H](CCCNC(=N)N)C(=O)N[C@@H](Cc1c[nH]c2ccccc12)C(=O)N[C@@H](CO)C(=O)N[C@@H](CCCNC(=N)N)C(=O)N[C@@H](CCCCN)C(=O)N[C@@H](CCSC)C(=O)N1CCC[C@H]1C(=O)N[C@@H](CS)C(=O)N[C@H](C(=O)N[C@@H](CO)C(=O)O)C(C)C | SUP-T1 | Erk phosphorylation, inhibitor, phospho flow cytometry |  | together with: CXCL12 100 ng/mL | > 100 µM
Cc1cc(Nc2ncc(Cl)c(Nc3ccccc3S(=O)(=O)C(C)C)n2)c(OC(C)C)cc1C1CCNCC1 | ALK fusion wild-type lines | cell viability |  |  | 0.028 µM
Cc1cc(Nc2ncnc3ccc(NC4=NC(C)(C)CO4)cc23)ccc1Oc1ccn2ncnc2c1 | Ba/F3 expressing HER2 wild type | cell growth, inhibitor, CellTiter-Glo |  |  | 0.0553 µM
COC[C@@H](C)NC1CCC(Nc2cc(-c3cccc(NCC4(C#N)CCOCC4)n3)c(Cl)cn2)CC1 (stereo partly drawn) | patient-derived organoid sample C | organoid viability | human | 96 h | 0.09 µM
O=C(O)COCC(=O)O | iPSC-derived hepatocytes B2 | cell viability |  | 72 h, differentiation day 23 | 8440 µM
Cn1nnc2c(C(N)=O)ncn2c1=O | sample A PDX | neurosphere formation |  | together with: talazoparib 10 nM | 0.081 µM
C[C@H](Nc1ccc2c(c1)OCCn1cc(N3C(=O)OC[C@H]3C(F)F)nc1-2)C(N)=O | PC-3 | western blot, measured: phospho-S6 Ser235/Ser236 |  | 2 h | 1.92 µM
C=CC(=O)N1CCC(Oc2cc3c(Nc4ccc(Cl)c(Cl)c4F)ncnc3cc2OC)CC1 | NCI-H2073 ASV knock-in | cell proliferation, CellTiter-Glo |  | 72 h, geometric mean | 0.00163 µM

Excerpt of the above:
Compound | cell line | assay | test system | setting | IC50
Cc1c(C(=O)O)ccc2c3n(nc12)[C@@H]1[C@H](C3)N(CC2CC2)[C@@]2(C(=O)Nc3cc(Cl)ccc32)[C@H]1c1cccc(Cl)c1F | U-2 OS (MDM2 non-amplified) | cell proliferation, alamarBlue |  | 120 h | > 2 µM
CC[C@H](C)[C@H](NC(C)=O)C(=O)N[C@@H](CC(C)C)C(=O)N[C@@H](CCCNC(=N)N)C(=O)N[C@@H](Cc1c[nH]c2ccccc12)C(=O)N[C@@H](CO)C(=O)N[C@@H](CCCNC(=N)N)C(=O)N[C@@H](CCCCN)C(=O)N[C@@H](CC(C)C)C(=O)N1CCC[C@H]1C(=O)N[C@@H](CS)C(=O)N[C@H](C(=O)N[C@@H](CO)C(N)=O)C(C)C | SUP-T1 | Erk phosphorylation, inhibitor, phospho flow cytometry |  | together with: CXCL12 100 ng/mL | 42.1 ± 29.8 µM
CC[C@H](C)[C@H](N)C(=O)N[C@H](CC(C)C)C(=O)N[C@@H](CCCNC(=N)N)C(=O)N[C@@H](Cc1c[nH]c2ccccc12)C(=O)N[C@@H](CO)C(=O)N[C@@H](CCCNC(=N)N)C(=O)N[C@@H](CCCCN)C(=O)N[C@@H](CCSC)C(=O)N1CCC[C@H]1C(=O)N[C@@H](CS)C(=O)N[C@H](C(=O)N[C@@H](CO)C(=O)O)C(C)C | SUP-T1 | Erk phosphorylation, inhibitor, phospho flow cytometry |  | together with: CXCL12 100 ng/mL | > 100 µM
COc1c(Cl)cccc1Nc1c(-c2ccncc2OC[C@@H]2COCCO2)[nH]c2c1C(=O)NCC2 | Ba/F3 expressing HER2 wild type | cell growth, inhibitor, CellTiter-Glo |  |  | 0.0053 µM
